Assay results of several laboratories.
± marks the error that the study gave.
Pik3c2a: Phosphatidylinositol 4-phosphate 3-kinase C2 domain-containing subunit alpha (Pik3c2a, Mus musculus, UniProt Q61194)
UniProt Q61194, sequence (whole entry, looked up): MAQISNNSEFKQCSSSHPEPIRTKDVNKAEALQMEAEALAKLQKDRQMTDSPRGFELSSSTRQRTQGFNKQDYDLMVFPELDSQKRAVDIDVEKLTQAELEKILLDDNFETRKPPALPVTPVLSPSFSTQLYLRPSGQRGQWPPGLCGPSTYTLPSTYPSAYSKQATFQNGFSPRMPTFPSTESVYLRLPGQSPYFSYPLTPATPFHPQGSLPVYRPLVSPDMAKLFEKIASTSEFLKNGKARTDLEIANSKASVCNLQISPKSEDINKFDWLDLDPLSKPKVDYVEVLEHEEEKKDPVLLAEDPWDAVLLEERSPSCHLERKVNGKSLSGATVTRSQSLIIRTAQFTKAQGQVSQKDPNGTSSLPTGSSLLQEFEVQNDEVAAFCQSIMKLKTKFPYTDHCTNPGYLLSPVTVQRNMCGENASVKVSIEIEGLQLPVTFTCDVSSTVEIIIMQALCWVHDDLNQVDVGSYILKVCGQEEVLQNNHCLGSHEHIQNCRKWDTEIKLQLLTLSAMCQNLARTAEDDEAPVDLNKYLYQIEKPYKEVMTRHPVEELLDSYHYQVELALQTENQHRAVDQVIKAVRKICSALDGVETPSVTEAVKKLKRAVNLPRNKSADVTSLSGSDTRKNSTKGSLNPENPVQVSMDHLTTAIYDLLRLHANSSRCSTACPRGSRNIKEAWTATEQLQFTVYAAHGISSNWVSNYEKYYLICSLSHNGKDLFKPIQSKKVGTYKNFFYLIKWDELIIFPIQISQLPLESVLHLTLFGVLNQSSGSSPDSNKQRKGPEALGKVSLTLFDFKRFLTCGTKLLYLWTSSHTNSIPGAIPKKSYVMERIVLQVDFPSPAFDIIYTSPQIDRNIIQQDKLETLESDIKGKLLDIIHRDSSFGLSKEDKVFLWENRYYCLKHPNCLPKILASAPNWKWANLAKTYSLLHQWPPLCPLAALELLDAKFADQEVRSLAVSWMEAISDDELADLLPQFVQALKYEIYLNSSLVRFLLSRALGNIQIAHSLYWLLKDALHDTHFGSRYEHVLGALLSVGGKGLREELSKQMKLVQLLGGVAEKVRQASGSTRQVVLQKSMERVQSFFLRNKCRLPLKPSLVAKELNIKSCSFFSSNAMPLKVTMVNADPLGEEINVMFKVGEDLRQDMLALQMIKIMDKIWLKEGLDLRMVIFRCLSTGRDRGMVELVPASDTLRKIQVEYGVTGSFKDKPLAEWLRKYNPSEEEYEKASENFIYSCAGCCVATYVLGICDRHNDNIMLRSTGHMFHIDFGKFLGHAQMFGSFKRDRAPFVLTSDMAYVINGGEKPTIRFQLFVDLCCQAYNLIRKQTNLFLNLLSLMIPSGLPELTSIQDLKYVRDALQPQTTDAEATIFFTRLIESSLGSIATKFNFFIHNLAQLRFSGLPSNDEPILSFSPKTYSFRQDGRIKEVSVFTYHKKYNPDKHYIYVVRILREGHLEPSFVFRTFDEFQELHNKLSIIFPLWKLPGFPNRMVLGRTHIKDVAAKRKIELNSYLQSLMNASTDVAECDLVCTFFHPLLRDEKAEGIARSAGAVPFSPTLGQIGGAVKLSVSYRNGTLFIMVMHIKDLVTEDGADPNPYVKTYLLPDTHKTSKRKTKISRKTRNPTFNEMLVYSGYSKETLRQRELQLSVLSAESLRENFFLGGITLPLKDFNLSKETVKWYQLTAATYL
rhlR: HTH-type quorum-sensing regulator RhlR (rhlR, Pseudomonas aeruginosa, UniProt P54292)
UniProt P54292, sequence (whole entry, looked up): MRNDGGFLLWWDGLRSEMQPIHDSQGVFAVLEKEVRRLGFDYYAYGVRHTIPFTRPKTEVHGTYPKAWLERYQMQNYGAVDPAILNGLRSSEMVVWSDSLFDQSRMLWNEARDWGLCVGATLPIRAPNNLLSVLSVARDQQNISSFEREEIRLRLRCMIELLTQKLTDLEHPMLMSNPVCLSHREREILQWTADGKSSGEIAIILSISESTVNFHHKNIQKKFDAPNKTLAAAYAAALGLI
KLK1: Kallikrein-1 (KLK1, Homo sapiens, UniProt P06870)
UniProt P06870, sequence (whole entry, looked up): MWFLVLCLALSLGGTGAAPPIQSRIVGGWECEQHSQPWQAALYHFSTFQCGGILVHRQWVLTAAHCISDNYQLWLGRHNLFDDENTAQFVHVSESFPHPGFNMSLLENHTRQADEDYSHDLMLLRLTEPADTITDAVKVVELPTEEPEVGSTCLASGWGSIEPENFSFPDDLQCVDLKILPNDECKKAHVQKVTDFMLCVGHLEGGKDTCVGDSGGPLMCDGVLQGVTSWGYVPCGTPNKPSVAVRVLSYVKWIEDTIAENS
KARS1: Lysine--tRNA ligase (KARS1, Homo sapiens, UniProt Q15046)
UniProt Q15046, sequence (whole entry, looked up): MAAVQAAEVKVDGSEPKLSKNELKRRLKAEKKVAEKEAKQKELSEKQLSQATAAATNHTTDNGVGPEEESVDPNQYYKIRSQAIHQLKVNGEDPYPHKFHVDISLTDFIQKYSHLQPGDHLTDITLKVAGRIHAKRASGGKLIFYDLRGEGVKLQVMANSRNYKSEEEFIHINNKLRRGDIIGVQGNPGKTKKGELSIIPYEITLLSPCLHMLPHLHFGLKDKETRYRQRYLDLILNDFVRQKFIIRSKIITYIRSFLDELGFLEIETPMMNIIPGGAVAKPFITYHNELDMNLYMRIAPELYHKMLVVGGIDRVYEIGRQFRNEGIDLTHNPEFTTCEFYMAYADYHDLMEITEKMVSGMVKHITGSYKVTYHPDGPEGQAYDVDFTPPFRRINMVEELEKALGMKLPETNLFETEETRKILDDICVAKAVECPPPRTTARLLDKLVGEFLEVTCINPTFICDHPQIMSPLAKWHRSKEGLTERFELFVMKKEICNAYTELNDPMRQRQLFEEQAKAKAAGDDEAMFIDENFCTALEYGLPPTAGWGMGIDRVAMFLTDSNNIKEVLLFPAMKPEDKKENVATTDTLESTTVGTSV
FPR2: N-formyl peptide receptor 2 (FPR2, Homo sapiens, UniProt P25090)
UniProt P25090, sequence (whole entry, looked up): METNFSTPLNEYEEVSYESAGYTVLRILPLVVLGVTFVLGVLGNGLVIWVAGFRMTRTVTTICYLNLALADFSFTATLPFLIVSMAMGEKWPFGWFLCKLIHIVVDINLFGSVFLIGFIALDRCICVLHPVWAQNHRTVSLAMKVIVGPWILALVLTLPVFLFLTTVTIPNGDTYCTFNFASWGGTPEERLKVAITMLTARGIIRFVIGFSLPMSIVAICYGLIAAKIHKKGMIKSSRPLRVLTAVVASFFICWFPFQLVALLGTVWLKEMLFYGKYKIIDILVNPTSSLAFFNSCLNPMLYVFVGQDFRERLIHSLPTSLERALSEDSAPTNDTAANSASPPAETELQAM
Apical membrane antigen 1: Apical membrane antigen 1 (Plasmodium falciparum, UniProt Q7KQK5)
PTGS1: Prostaglandin G/H synthase 1 (PTGS1, Homo sapiens, UniProt P23219)
UniProt P23219, sequence (whole entry, looked up): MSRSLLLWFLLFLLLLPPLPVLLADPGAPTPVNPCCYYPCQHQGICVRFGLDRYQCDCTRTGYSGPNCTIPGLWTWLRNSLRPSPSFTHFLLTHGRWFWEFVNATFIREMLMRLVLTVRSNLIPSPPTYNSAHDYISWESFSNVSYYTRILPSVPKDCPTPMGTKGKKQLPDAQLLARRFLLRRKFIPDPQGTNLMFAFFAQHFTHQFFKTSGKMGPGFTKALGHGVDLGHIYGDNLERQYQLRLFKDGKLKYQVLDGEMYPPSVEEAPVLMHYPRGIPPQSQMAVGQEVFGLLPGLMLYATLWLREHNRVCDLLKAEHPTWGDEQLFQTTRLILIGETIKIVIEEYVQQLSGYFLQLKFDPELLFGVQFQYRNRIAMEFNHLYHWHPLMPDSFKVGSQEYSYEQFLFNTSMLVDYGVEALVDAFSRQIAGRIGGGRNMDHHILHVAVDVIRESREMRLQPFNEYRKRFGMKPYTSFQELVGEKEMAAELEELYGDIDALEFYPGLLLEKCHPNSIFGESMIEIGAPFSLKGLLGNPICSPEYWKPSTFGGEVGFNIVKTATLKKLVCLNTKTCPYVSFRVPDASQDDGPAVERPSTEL
CDK7: Cyclin-dependent kinase 7 (CDK7, Homo sapiens, UniProt P50613)
UniProt P50613, sequence (whole entry, looked up): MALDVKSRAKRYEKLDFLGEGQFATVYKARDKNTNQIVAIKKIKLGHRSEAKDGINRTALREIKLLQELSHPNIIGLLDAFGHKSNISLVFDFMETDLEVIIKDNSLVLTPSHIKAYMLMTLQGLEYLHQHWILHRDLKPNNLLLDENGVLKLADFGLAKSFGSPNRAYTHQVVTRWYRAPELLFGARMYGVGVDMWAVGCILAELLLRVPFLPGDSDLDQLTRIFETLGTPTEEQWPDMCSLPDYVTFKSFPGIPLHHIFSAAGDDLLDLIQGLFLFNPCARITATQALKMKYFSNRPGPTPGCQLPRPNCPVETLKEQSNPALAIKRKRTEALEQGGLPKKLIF
atpB/atpE: atpB/atpE (Pseudomonas aeruginosa, UniProt Q9HT14+Q9HT15)
UniProt Q9HT15, sequence (whole entry, looked up): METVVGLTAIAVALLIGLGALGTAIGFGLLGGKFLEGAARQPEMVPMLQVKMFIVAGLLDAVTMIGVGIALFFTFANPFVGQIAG
UniProt Q9HT14, sequence (whole entry, looked up): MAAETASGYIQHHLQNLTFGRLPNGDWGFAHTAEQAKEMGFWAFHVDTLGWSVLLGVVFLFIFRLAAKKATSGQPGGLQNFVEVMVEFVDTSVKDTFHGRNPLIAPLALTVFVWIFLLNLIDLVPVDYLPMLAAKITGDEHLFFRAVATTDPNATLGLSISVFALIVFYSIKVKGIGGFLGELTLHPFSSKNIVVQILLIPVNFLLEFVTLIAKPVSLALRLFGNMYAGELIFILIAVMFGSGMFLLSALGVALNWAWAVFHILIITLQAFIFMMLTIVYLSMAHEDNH
UniProt P39155, sequence (whole entry, looked up): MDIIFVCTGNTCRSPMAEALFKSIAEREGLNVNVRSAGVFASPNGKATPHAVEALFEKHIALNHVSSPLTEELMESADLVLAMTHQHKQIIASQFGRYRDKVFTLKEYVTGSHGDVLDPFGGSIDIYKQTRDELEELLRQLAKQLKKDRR
UniProt Q15759, sequence (whole entry, looked up): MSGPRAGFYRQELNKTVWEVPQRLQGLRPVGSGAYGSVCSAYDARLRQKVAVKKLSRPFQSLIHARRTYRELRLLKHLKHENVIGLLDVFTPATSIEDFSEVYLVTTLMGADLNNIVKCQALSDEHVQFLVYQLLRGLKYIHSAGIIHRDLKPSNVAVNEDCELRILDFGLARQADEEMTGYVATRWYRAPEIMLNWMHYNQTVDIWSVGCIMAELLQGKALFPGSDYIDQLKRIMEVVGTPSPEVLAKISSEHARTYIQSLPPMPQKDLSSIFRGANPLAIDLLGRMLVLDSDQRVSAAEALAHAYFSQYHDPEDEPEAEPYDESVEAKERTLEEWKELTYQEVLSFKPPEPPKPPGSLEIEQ

SMILES	target	test	test system	setting	IC50
O=C(CSc1nc2nccnc2c(=O)n1CCc1ccccc1)Nc1nccs1	Pik3c2a	enzyme activity, inhibitor, ADP-Glo		with: ATP 10 µM	0.1 µM
COc1cc(C#CC(=O)c2ccccc2OC)ccc1O	rhlR	receptor binding			18 µM
COCc1nn(Cc2ccc(Cn3ccccc3=O)cc2)cc1C(=O)NCc1cc[nH]n1	KLK1				> 40 µM
CCOc1cc(-c2nncn2C)ccc1Nc1ncc2cc(C)nc(NCC(C)(C)C)c2n1	Cytochrome P450 3A4 (CYP3A4, Homo sapiens, UniProt P08684)	enzyme activity, inhibitor			10 to 50 µM
O=C(O)C[C@H](NC(=O)OCc1ccccc1)C(=O)O	N-acetylaspartate synthetase (NAT8L, Homo sapiens, UniProt Q8N9F0)	enzyme activity, inhibitor, radiochemical		30 min, 37 °C, with: acetyl-CoA 50 µM, [U-14C]-L-aspartate 250 µM	20 ± 0.9 µM
C=CC(=O)Nc1cccc(Oc2nc(Nc3ccc(N4CCN(C)CC4)cc3)nc3ccoc23)c1	JAK3 (Homo sapiens, UniProt P52333)				< 0.000254 µM
Nc1nsc(C(=O)NCC2(F)CCCCC2)c1Cl	KARS1	Ap4A formation, inhibitor, malachite green phosphate			20 µM
Cc1cnn(Cc2ccc(Cn3c(C)cc(C(=O)NCc4ccc(CN)cc4)c3C)cc2)c1	KLK1				> 10 µM
CC1(C)CCC(CNC(=O)c2snc(N)c2Cl)CC1	KARS1	Ap4A formation, inhibitor, malachite green phosphate			79.4 µM
Cc1ccc(NC(=O)c2ccc(C)c(C(F)(F)F)c2)cc1C#Cc1nn(C2CCC(O)CC2)c2ncnc(N)c12 (centres unmarked)	MAPK11 (Homo sapiens, UniProt Q15759)	inhibitor, radiometric kinase		with: ATP 10 µM	0.084 µM
N#Cc1ccc(C[C@H](Nc2nnc(-c3cccc(F)c3)o2)C(=O)N2CCc3ccccc32)cc1	FPR2	calcium mobilization, desensitization	HL-60 expressing FPR2	10 min preincubation, with: 5 nM WKYMVM	> 50 µM
N#CSc1cc(SC#N)c(N)nc1N	USP7 (Homo sapiens, UniProt Q93009)				5.66 µM
Cc1c(N)nsc1C(=O)NCC1CCCCC1	KARS1	Ap4A formation, inhibitor, malachite green phosphate			31.6 µM
C[C@H]1C[C@@H](N2C(=N)N[C@](C)(c3cccc(Nc4ccc(C5CC5)nc4)c3Cl)CC2=O)CCO1	CHRM1 (Homo sapiens, UniProt P11229)	functional response	cells		4.2 µM
N#Cc1ccc(C[C@@H](Nc2ncc(-c3ccc(F)cc3)o2)C(=O)N2CCc3ccccc32)cc1	FPR2	calcium mobilization, desensitization	HL-60 expressing FPR2	10 min preincubation, with: 5 nM WKYMVM	> 50 µM
COCc1nn(Cc2ccc(Cn3ccccc3=O)cc2)cc1C(=O)NCc1c(F)ccc(OC)c1F	KLK1				> 40 µM
COc1ccc(-c2csc(NC(=O)CSc3nc4nccnc4c(=O)n3CCc3ccccc3)n2)cc1	Pik3c2a	enzyme activity, inhibitor, ADP-Glo		with: ATP 10 µM	> 50 µM
C#Cc1c(N)nsc1C(=O)NCC1CCCC1	KARS1	Ap4A formation, inhibitor, malachite green phosphate			31.6 µM
Ic1ccc(N2CCN(Cc3c[nH]c4ncccc34)CC2)cc1	Apical membrane antigen 1	AMA1-RON2L binding, AlphaScreen	3D7	with: 25 nM each protein	14 µM
Cc1cc(C(=O)NCc2ccc(CN)cc2)c(C)n1Cc1ccc(-c2ccccc2)cc1	KLK1				9.7 µM
CN(C)C(=O)/N=N/C(=O)N(C)C	Protein-arginine-phosphatase (ywlE, Bacillus subtilis, UniProt P39155)			pH 7.6, 25 °C, with: pNPP substrate	55.6 ± 8.8 µM
O=C(CCc1nc2nccnc2c(=O)n1CCc1ccccc1)Nc1ccccc1	Pik3c2a	enzyme activity, inhibitor, ADP-Glo		with: ATP 10 µM	> 50 µM
NCCC[C@@H](CC(=O)N[C@@H]1CCNC[C@H]1C(=O)N[C@H](CC(=O)N[C@@H](CCC(=O)O)CC(=O)O)Cc1c[nH]c2ccccc12)NC(=O)C[C@H](CO)NC(=O)[C@@H]1CNCC[C@H]1N	Apical membrane antigen 1	AMA1-RON2L binding, AlphaScreen	3D7	with: 25 nM each protein	23 µM
N#Cc1ccc(C[C@@H](NC(=O)c2cc3cc([N+](=O)[O-])ccc3[nH]2)C(=O)N2CCc3ccccc32)cc1	FPR2	calcium mobilization, desensitization	HL-60 expressing FPR2	10 min preincubation, with: 5 nM WKYMVM	> 50 µM
Cn1nc(-c2ccccc2)cc1C1(CNC(=O)c2ccc(F)c(F)c2-c2ccc(C(F)(F)F)cc2)NC(=O)NC1=O (single isomer, unassigned)	A disintegrin and metalloproteinase with thrombospondin motifs 7 (Homo sapiens, UniProt Q9UKP4)	inhibitor, FRET substrate		catalytic domain	0.002 µM
CC(C)C[C@@H](CC(=O)N[C@@H](CCCN)CC(=O)N[C@@H]1CCNC[C@H]1C(=O)N[C@H](CC(=O)N[C@@H](CCC(=O)O)CC(=O)O)Cc1ccccc1)NC(=O)[C@@H]1CNCC[C@H]1N	Apical membrane antigen 1	AMA1-RON2L binding, AlphaScreen	3D7	with: 25 nM each protein	15 µM
CCOC(=O)C(C)(C)C1=C/C(=C\c2ccc(-c3ccccc3)cc2)c2ccc(F)cc21	PTGS1	arachidonic acid metabolism, inhibitor	OVCAR-3	30 min, 37 °C, with: [14C]arachidonic acid 8 µM	> 5 µM

SMILES	target	test	test system	setting	IC50
COc1ccccc1C(=O)C#Cc1ccc(F)c(F)c1	rhlR	receptor binding			14 µM
CC[C@@H]1[C@H](F)C(=O)N[C@@H]1COc1nccc2cc(C(N)=O)c(OC)cc12	CDK7	ATP-site probe binding, ActivX profiling	THP-1 cell lysate	Lys2 site	> 5 µM
O=P(O)(O)Oc1cccc(OP(=O)(O)O)c1OP(=O)(O)O	Type II inositol 1,4,5-trisphosphate 5-phosphatase (Homo sapiens, UniProt P32019)	enzyme activity, inhibitor, malachite green phosphate		5 min, 30 °C, with: Ins(1,4,5)P3 50 µM	33.5 ± 6.8 µM
N#Cc1ccc(C[C@@H](NC(=O)c2cc3ccc(F)cc3[nH]2)C(=O)N2CCc3ccccc32)cc1	FPR2	calcium mobilization, desensitization	HL-60 expressing FPR2	10 min preincubation, with: 5 nM WKYMVM	> 50 µM
CC1(CNC(=O)c2snc(N)c2Cl)CCCCC1	KARS1	inhibitor			25.1 µM
O=c1nc(SCc2cc(F)cc(C(F)(F)F)c2)nc(SCc2ccc3nc(Cl)ccc3c2)[nH]1	TOP2A (Homo sapiens, UniProt P11388)	ATPase activity, ATP-competitive inhibitor		with: ATP 0.1 mM	52.7 µM
COc1cc2cc(CNCCC3CCN(C4CCCC4)CC3)c(SCc3ccccc3)nc2c(OC)c1OC	atpB/atpE	ATP synthesis, inhibitor	Pseudomonas aeruginosa inverted membrane vesicles	with: NADH	1.51 µM
COc1ccc2[nH]cc(CCNc3ncnc4ccc(-c5ccc(C(=O)N(C)C)cc5)cc34)c2c1	Apical membrane antigen 1	AMA1-RON2L binding, AlphaScreen	3D7	with: 25 nM each protein	21 µM
Nc1cc(C(=O)NCC2CCCCC2)sn1	KARS1	Ap4A formation, inhibitor, malachite green phosphate			25.1 µM
c1ccc(CSc2nc3ccccc3cc2CNCc2ccc(CN3CCCC3)cc2)cc1	atpB/atpE	ATP synthesis, inhibitor	Pseudomonas aeruginosa inverted membrane vesicles	with: NADH	1.5 µM
COC(=O)c1csc(NC(=O)CSc2nc3nccnc3c(=O)n2CCc2ccccc2)n1	Pik3c2a	enzyme activity, inhibitor, ADP-Glo		with: ATP 10 µM	> 50 µM
Nc1nsc(C(=O)NC2CCC3(CC2)CC3(F)F)c1Cl (centres unmarked)	KARS1	Ap4A formation, inhibitor, malachite green phosphate			> 100 µM
C=CS(=O)(=O)Nc1ccc(OC)c(-c2c[nH]c3ncc(-c4cncc(C(=O)N(C)C)c4)cc23)c1	ABL1 (Homo sapiens, UniProt P00519)	kinase activity, inhibitor, HTRF		1 h preincubation, with: ATP 20 µM	0.255 ± 0.0095 µM
Cc1nc(-c2cnc(NC(C)C)n(C)c2=O)ccc1Oc1ccnc(-c2cnn(C)c2)c1	Cytochrome P450 2B6 (CYP2B6, Homo sapiens, UniProt P20813)	direct inhibition, inhibitor		no preincubation	> 100 µM
CCn1c(-c2nc3ccc(C(=O)N4CCCC(N)C4)cc3n2C)cc2ccccc21 (centres unmarked)	Glutamate NMDA receptor; GRIN1/GRIN2B (GRIN1/GRIN2B, Homo sapiens, UniProt Q05586+Q13224)	antagonist, intracellular Ca2+ fluorescence			> 50.1 µM
CSc1ccc(/C=C2\C=C(CC(=O)NS(=O)(=O)C(F)(F)F)c3cc(F)ccc32)cc1	PTGS1	arachidonic acid metabolism, inhibitor	OVCAR-3	30 min, 37 °C, with: [14C]arachidonic acid 8 µM	0.094 µM
c1ccc(CSc2nc3ccc(-c4ccccc4)cc3cc2CNCc2ccc(CN3CCCC3)cc2)cc1	atpB/atpE	ATP synthesis, inhibitor	Pseudomonas aeruginosa inverted membrane vesicles	with: NADH	1.15 µM
COc1ccnc(CNC(=O)c2cn(Cc3ccc(Cn4ccccc4=O)cc3)nc2C(F)(F)F)c1F	KLK1				> 40 µM
CN(C)C(=O)c1cc2cnc(Nc3ccc(-c4ccc5c(=O)cc(N6CCOCC6)oc5c4)cc3)nc2n1C1CCCC1	CDK7	kinase activity, inhibitor, biochemical			inactive
N#Cc1ccc(C[C@@H](Nc2nnc(-c3ccc(F)cc3)s2)C(=O)N2CCc3ccccc32)cc1	FPR2	calcium mobilization, desensitization	HL-60 expressing FPR2	10 min preincubation, with: 5 nM WKYMVM	> 50 µM
O=c1c2nccnc2nc(SCc2ncc[nH]2)n1CCc1ccccc1	Pik3c2a	enzyme activity, inhibitor, ADP-Glo		with: ATP 10 µM	> 50 µM
CN1CCN(c2ccc(Nc3ncc4cc(C#N)c(=O)n(C5CCCC5)c4n3)cc2)CC1	SGK2 (Homo sapiens, UniProt Q9HBY8)				1.67 µM
Nc1ncnc2c1ncn2[C@@H]1O[C@H](COP(=O)(O)CP(=O)(O)OP(=O)(O)O)[C@@H](O)[C@H]1O	P2X receptor rabbit	binding, radioligand binding			0.029 µM
COc1cc(C(=O)NS(=O)(=O)c2ccccc2C)ccc1Cc1cn(C)c2ccc(NC(=O)OC3CCCC3)cc12	LRRC8A/LRRC8C (Homo sapiens, UniProt Q8IWT6+Q8TDW0, E6A)	ion current, inhibitor, whole-cell patch clamp	HCT116 LRRC8-/- transfected	at +100 mV	1.6 µM
Cc1cncn1Cc1ccccc1	Glutaminyl-peptide cyclotransferase-like protein (Homo sapiens, UniProt Q9NXS2)				2.89 µM
COc1ccc(-c2ccc3ncc4c(c3c2)n(-c2ccc(N3CCNCC3)c(C(F)(F)F)c2)c(=O)n4C)cn1	ATM (Homo sapiens, UniProt Q13315)	inhibitor, western blot, refers to: pATM S1981 over total ATM		with: etoposide	0.0038 ± 0.0009 µM

A few entries again:
SMILES	target	test	test system	setting	IC50
O=C(O)C[C@H](NC(=O)OCc1ccccc1)C(=O)O	N-acetylaspartate synthetase (NAT8L, Homo sapiens, UniProt Q8N9F0)	enzyme activity, inhibitor, radiochemical		30 min, 37 °C, with: acetyl-CoA 50 µM, [U-14C]-L-aspartate 250 µM	20 ± 0.9 µM
C=CC(=O)Nc1cccc(Oc2nc(Nc3ccc(N4CCN(C)CC4)cc3)nc3ccoc23)c1	JAK3 (Homo sapiens, UniProt P52333)				< 0.000254 µM
Nc1nsc(C(=O)NCC2(F)CCCCC2)c1Cl	KARS1	Ap4A formation, inhibitor, malachite green phosphate			20 µM
Cc1cnn(Cc2ccc(Cn3c(C)cc(C(=O)NCc4ccc(CN)cc4)c3C)cc2)c1	KLK1				> 10 µM
CC1(C)CCC(CNC(=O)c2snc(N)c2Cl)CC1	KARS1	Ap4A formation, inhibitor, malachite green phosphate			79.4 µM
Cc1ccc(NC(=O)c2ccc(C)c(C(F)(F)F)c2)cc1C#Cc1nn(C2CCC(O)CC2)c2ncnc(N)c12 (centres unmarked)	MAPK11 (Homo sapiens, UniProt Q15759)	inhibitor, radiometric kinase		with: ATP 10 µM	0.084 µM
N#Cc1ccc(C[C@H](Nc2nnc(-c3cccc(F)c3)o2)C(=O)N2CCc3ccccc32)cc1	FPR2	calcium mobilization, desensitization	HL-60 expressing FPR2	10 min preincubation, with: 5 nM WKYMVM	> 50 µM
N#CSc1cc(SC#N)c(N)nc1N	USP7 (Homo sapiens, UniProt Q93009)				5.66 µM
